Results collected from several papers.
Compare with care: the assays were run in different laboratories. ± gives the spread as reported.

Molecule	assay	test system	setting	scale	endpoint	result
O=C1N=C(N2CCOCC2)CN1c1ccc(Cl)cc1		beagle dog, both sexes, plasma	oral, 30 mg/kg twice daily, day 5, tablets, after 4 days dosing		AUC(0-inf)	61700 ng·h/mL
CCCOc1ccc([C@H]2CNC(=O)N2c2ccc3[nH]cnc3c2)cc1		human volunteers fasted, plasma	oral solution, 10 mg single dose, day 1, geometric mean		AUC(0-12h)	65.1 ng·h/mL
CN[C@@H]1[C@H](O)[C@H](NC)[C@H]2O[C@]3(O)[C@H](O[C@@H]2[C@H]1O)O[C@H](C)C[C@H]3NC(=O)Cc1ccc(Cl)cn1	glutathione conjugation	rat liver S9	100 µM, 2 h, pH 7.4, added: glutathione 0.2 mM		parent remaining	99.4%
CN(C)C(=O)c1cc2cnc(Nc3ccc(N4CCNCC4)cn3)nc2n1C1CCCC1		patients Rb+ solid tumours	oral, dose not given, all doses treatment-related		QT prolongation grade 3	2%
CNC(=O)c1cccc2cc(Oc3ccnc4cc(OCC5(N)CC5)c(OC)cc34)ccc12		human	oral, 10 mg, cycle 1 day 15, multiple dose, continuous arm, geometric mean		Vss/F	125 L
CS/C(S)=N/CCCC[S+](C)[O-] (racemic)	RT-PCR, refers to: Cyp2b3	rat, liver	oral gavage, 200 mg/kg, dosed for four days	baseline: vehicle	mRNA fold change	2.09
CC#CC(=O)N1CCC[C@H]1c1nc(-c2ccc(C(=O)Nc3ccccn3)cc2)c2c(N)nccn12		Japanese patients, plasma	oral, 100 mg single dose, fasting, geometric mean		AUC(0-12 h)	891 ng·h/mL
CS(=O)(=O)n1cc2c(n1)CN([C@H]1CO[C@H](c3cc(F)ccc3F)[C@@H](N)C1)C2		healthy male human, plasma	oral, 100 mg once weekly, day 1, fasted, geometric mean		concentration at 168 h	51.5 nM
COc1cccc2c1C(=O)c1c(O)c3c(c(O)c1C2=O)C[C@@](O)(C(C)=O)C[C@@H]3O[C@H]1C[C@H](N)[C@H](O)[C@H](C)O1		Sprague-Dawley rat, plasma	intravenous, 5 mg/kg		elimination half-life	2.01 ± 1.12 h
CCN1C(=O)CNc2ncc(-c3ccc(-c4nc[nH]n4)nc3C)nc21		human, plasma	oral, 25 mg once daily, multiple doses		AUC(0-12h)	1180 ng·h/mL
COc1ccc(C2=Nn3c(nnc3-c3cc(-c4ccc(Cl)cc4)n[nH]3)SC2C)cc1 (centres unmarked)		10% Solutol HS15 in water			maximum solubility	400 µg/mL
O=C1Nc2ccccc2C(=O)CCc2ccc(F)cc21	nephelometry	aqueous buffer	30 min, pH 6.5		kinetic solubility	> 100 µg/mL
C[C@@H](c1ncncc1F)[C@](O)(Cn1cncn1)c1ccc(F)cc1F		patients, hematological disorders, proton pump inhibitor users, plasma	200 mg, 12 h, steady state, median		trough concentration	2860 ng/mL
CC1(C)C2CC[C@]1(C)C(=O)/C2=C/c1cccs1		human red blood cells	10 to 300 µg/mL, 30 min		maximum hemolysis	< 14%
C=CC(=C)CC[C@]1(C)[C@H](C)C[C@H](OC)[C@@]23C(=C[C@H](OC(=O)C(C)C)C[C@@H]12)[C@@H](OC(C)=O)O[C@H]3OC(C)=O	haemolysis		100 µM		haemolysis	16.5%
CCCCC[N+]1(CC(=O)OC2CCCCCCCCCCC2)CCCCC1.[I-]		phosphate buffer with 2% DMSO	90 min, pH 7.4, theoretical maximum 200 µM		aqueous solubility	196 µM
CC(C)=CCC[C@](C)(O[C@@H]1O[C@H](CO[C@@H]2O[C@H](CO)[C@@H](O)[C@H](O)[C@H]2O)[C@@H](O)[C@H](O)[C@H]1O)[C@H]1CC[C@]2(C)[C@@H]1[C@H](O)C[C@@H]1[C@@]3(C)CC[C@H](O[C@@H]4O[C@H](CO)[C@@H](O)[C@H](O)[C@H]4O[C@@H]4O[C@H](CO)[C@@H](O)[C@H](O)[C@H]4O)C(C)(C)[C@@H]3CC[C@]12C		Sprague Dawley rat, male, plasma	oral, 86 mg/kg, pure ginsenoside mixture in water		AUC(0-inf)	68500 ± 17300 ng·h/mL
CCCC[C@H](NC(C)=O)C(=O)N[C@H]1CCC(=O)NC[C@@H](C(=O)N[C@@H](Cc2c[nH]c3ccccc23)C(N)=O)NC(=O)[C@H](CCCNC(=N)N)NC(=O)[C@@H](Cc2ccccc2)NC(=O)[C@H](Cc2c[nH]cn2)NC1=O		male rat, plasma	subcutaneous, 1 mg/kg/day, multiple doses, once daily		Vd/F	1 L/kg

Molecule	assay	test system	setting	scale	endpoint	result
C[C@]1(c2nc3c(C(N)=O)cccc3[nH]2)CCCN1		human patients, plasma	oral, 40 mg, day -2, cycle 1		AUC(0-12h)	1760 ng·h/mL
CCCCCCCCCCCCCNCC(=O)N(CCCCCC)CC(=O)N(CCCCN)CC(=O)N(CCN)CC(=O)N(CCCCCC)CC(N)=O	preparative RP-HPLC C18	water to acetonitrile gradient	0.05% TFA in eluent	higher = more hydrophobic	acetonitrile at elution	73.3%
Cc1nc2cccc(OCC(C)(C)C(=O)NC(C)C)c2c(N)c1C(=O)O		male Sprague-Dawley rat, plasma	oral gavage, 30 mg/kg, day 7		half-life	0.94 h
CC(C)NC[C@@H](C(=O)N1CCN(c2ncnc3c2[C@H](C)C[C@H]3O)CC1)c1ccc(Cl)cc1		human, normal hepatic function, plasma	oral, 100 mg single dose, reference group versus Moderate	baseline: NCI classification	AUC(0-∞)	304 ng·h/mL
CCC(CC)COC(=O)[C@H](C)N[P@](=O)(OC[C@H]1O[C@@](C#N)(c2ccc3c(N)ncnn23)[C@H](O)[C@@H]1O)Oc1ccccc1		20% w/w aqueous SBECD	24 h, pH 1.9, 25 °C, SBECD source 1		equilibrium solubility	8340 µg/mL
CC(C)[C@H](NC(=O)[C@@H]1CCCN1C(=O)[C@H](CCCNC(=N)N)NC(=O)[C@H](CS)NC(=O)[C@H](Cc1c[nH]c2ccccc12)NC(=O)[C@H](CCCNC(=N)N)NC(=O)[C@@H](Cc1ccccc1)NC(=O)[C@H](Cc1c[nH]cn1)NC(=O)[C@H](CCC(=O)O)NC(=O)[C@H](CS)NC(=O)[C@H](CS)NC(=O)[C@H](CCCCN)NC(=O)[C@@H]1CC(=O)N[C@@H](CCCNC(=N)N)C(=O)N[C@@H]([C@@H](C)O)C(=O)N[C@@H](CC(=O)O)C(=O)N[C@H](Cc2ccc(O)cc2)C(=O)N1)C(N)=O [technetium-99m labelled]		female C57 mouse, B16/F1 melanoma, urine	intravenous, dose not given, 2 h, added: NDP-MSH 10 µg co-injected		urinary excretion	48.5 ± 21.6%
COc1cc2c3c(n(CCCN4CCOCC4)c(=O)c2cc1OC)-c1cc2c(cc1C3=O)OCO2		patients, plasma	intravenous infusion, 40 mg/m^2 daily over 1 h, cycle 1 day 5		AUC(0-24 h)	8120 ng·h/mL
C[C@]12CC[C@@H]3c4ccc(O)cc4CC[C@H]3[C@@H]1C[C@@H](O)[C@@H]2O	GC-MS	breast cancer women on NSAI, serum	vaginal, 0.03 mg daily, 1 h, day 28		median serum concentration	0 ng/mL
Cc1c2c(n(-c3ccc(Cl)cc3Cl)c1-c1ccc(OS(=O)(=O)CCC(F)(F)F)cc1)CCN(N1CCCCC1)C2=O	LC-MS/MS	cynomolgus monkey 1, plasma	intravenous infusion, 2.0 mg/kg, 90 min, total concentration mid-point of PET		plasma concentration	560 nM
OC[C@H]1O[C@@H](c2ccc(Cl)c(Cc3ccc(O[C@H]4CCOC4)cc3)c2)[C@H](O)[C@@H](O)[C@@H]1O		male ICR mouse, kidney	oral, 3 mg/kg, 24 h		AUC	4200 ng·h/mL
CC1(C)C=Cc2cc(CN(CC3CC3)S(=O)(=O)c3ccccn3)ccc2O1	laser nephelometry	PBS with 1% DMSO	90 min, pH 7.4		aqueous solubility	< 15 µg/mL
CC[C@H](C)[C@H](NC(=O)[C@H](CC(C)C)NC(=O)[C@H](Cc1c[nH]c2ccccc12)NC(=O)[C@H](C)NC(=O)[C@@H](NC(=O)[C@H](Cc1ccccc1)NC(=O)[C@H](CC(=O)O)NC(=O)[C@H](CCCNC(=N)N)NC(=O)[C@H](C)NC(=O)[C@H](C)NC(=O)[C@H](CC(C)C)NC(=O)[C@H](C)NC(=O)[C@H](CC(=O)O)NC(=O)[C@H](CC(C)C)NC(=O)[C@@H](NC(=O)[C@@H](NC(=O)[C@H](C)NC(=O)[C@H](CC(C)C)NC(=O)[C@H](CCC(=O)O)NC(=O)[C@H](CO)NC(=O)[C@H](CO)NC(=O)[C@H](Cc1ccccc1)NC(=O)[C@@H](NC(=O)CNC(=O)[C@H](CCC(=O)O)NC(=O)CNC(=O)[C@@H](N)Cc1cnc[nH]1)[C@@H](C)O)[C@@H](C)O)[C@@H](C)CC)[C@@H](C)CC)C(=O)N[C@@H](C)C(=O)N[C@H](C(=O)N[C@@H](CCCCN)C(=O)N[C@H](C(=O)N[C@H](C(=O)N[C@@H](CC(=O)O)C(=O)N[C@@H](CCCCN)C(=O)N[C@@H](CCCCN)C(=O)N[C@@H](CCCCN)C(=O)N[C@@H](CCCCN)C(=O)N[C@@H](CCCCN)C(=O)N[C@@H](CCCCN)C(N)=O)[C@@H](C)O)[C@@H](C)CC)[C@@H](C)O	immunoaffinity LC-MS/MS	healthy human subjects, plasma	subcutaneous, 10 mg once weekly, day 36 after 6 doses, steady state, geometric mean		AUCtau	1.45 nM·h
CC(C)[C@H](N)C(=O)OCC1(CO)C/C1=C/n1cnc2c(=O)[nH]c(N)nc21.Cl (mixture of isomers)	refers to: prodrug	Swiss-Webster mouse (male), plasma	intravenous, 24.6 mg/kg, two-compartment model		C0 distribution phase	36500 ng/mL
O=C(O)/C=C/c1ccc(O)c(O)c1	UPLC-MS/MS	Wistar rat, microcirculation dysfunction model, plasma	oral, 100 mg/kg Salvia miltiorrhiza stem-leaf extract FT		MRT(0-inf)	25.9 ± 33.6 h
colistin B methanesulfonate	one-compartment PK model	rat	i.p., 20 mg/kg colistin base activity		volume of distribution	0.263 ± 0.0583 L/kg
CC[C@H](C)[C@H](NC(=O)[C@H](Cc1ccccc1)NC(=O)[C@H](CCC(=O)O)NC(=O)[C@H](CCCCNC(=O)COCCOCCNC(=O)COCCOCCNC(=O)CC[C@H](NC(=O)CCCCCCCCCCCCCCCCC(=O)O)C(=O)O)NC(=O)[C@H](C)NC(=O)[C@H](C)NC(=O)[C@H](CCC(N)=O)NC(=O)CNC(=O)[C@H](CCC(=O)O)NC(=O)[C@H](CC(C)C)NC(=O)[C@H](Cc1ccc(O)cc1)NC(=O)[C@H](CO)NC(=O)[C@H](CO)NC(=O)[C@@H](NC(=O)[C@H](CC(=O)O)NC(=O)[C@H](CO)NC(=O)[C@@H](NC(=O)[C@H](Cc1ccccc1)NC(=O)[C@@H](NC(=O)CNC(=O)[C@H](CCC(=O)O)NC(=O)C(C)(C)NC(=O)[C@@H](N)Cc1cnc[nH]1)[C@@H](C)O)[C@@H](C)O)C(C)C)C(=O)N[C@@H](C)C(=O)N[C@@H](Cc1c[nH]c2ccccc12)C(=O)N[C@@H](CC(C)C)C(=O)N[C@H](C(=O)N[C@@H](CCCNC(=N)N)C(=O)NCC(=O)N[C@@H](CCCNC(=N)N)C(=O)NCC(=O)O)C(C)C		healthy human subjects	dose not given		symptomatic hypoglycemia incidence	10.8%
S=C(NCCCc1c[nH]cn1)NCCCN(Cc1ccc(Cl)c(Cl)c1)c1ccc(Br)cn1		male C57BL/6 mice, plasma	intraperitoneal, 30 mg/kg, 12 h		plasma concentration	118 ng/mL

A few entries again:
Molecule	assay	test system	setting	scale	endpoint	result
CC[C@H](C)[C@H](NC(=O)[C@H](Cc1ccccc1)NC(=O)[C@H](CCC(=O)O)NC(=O)[C@H](CCCCNC(=O)COCCOCCNC(=O)COCCOCCNC(=O)CC[C@H](NC(=O)CCCCCCCCCCCCCCCCC(=O)O)C(=O)O)NC(=O)[C@H](C)NC(=O)[C@H](C)NC(=O)[C@H](CCC(N)=O)NC(=O)CNC(=O)[C@H](CCC(=O)O)NC(=O)[C@H](CC(C)C)NC(=O)[C@H](Cc1ccc(O)cc1)NC(=O)[C@H](CO)NC(=O)[C@H](CO)NC(=O)[C@@H](NC(=O)[C@H](CC(=O)O)NC(=O)[C@H](CO)NC(=O)[C@@H](NC(=O)[C@H](Cc1ccccc1)NC(=O)[C@@H](NC(=O)CNC(=O)[C@H](CCC(=O)O)NC(=O)C(C)(C)NC(=O)[C@@H](N)Cc1cnc[nH]1)[C@@H](C)O)[C@@H](C)O)C(C)C)C(=O)N[C@@H](C)C(=O)N[C@@H](Cc1c[nH]c2ccccc12)C(=O)N[C@@H](CC(C)C)C(=O)N[C@H](C(=O)N[C@@H](CCCNC(=N)N)C(=O)NCC(=O)N[C@@H](CCCNC(=N)N)C(=O)NCC(=O)O)C(C)C		healthy human subjects	dose not given		symptomatic hypoglycemia incidence	10.8%
S=C(NCCCc1c[nH]cn1)NCCCN(Cc1ccc(Cl)c(Cl)c1)c1ccc(Br)cn1		male C57BL/6 mice, plasma	intraperitoneal, 30 mg/kg, 12 h		plasma concentration	118 ng/mL
